# Results collected from several papers.
# Protocols differ between the studies behind these lines.
# Medium: plasma
SMILES,species,route,dose,setting,AUC [ng·h/mL]
COC1C=COC2(C)Oc3c(C)c(O)c4c(c3C2=O)C2=NC3(CCN(CC(C)C)CC3)NC2=C(NC(=O)C(C)=CC=CC(C)C(O)C(C)C(O)C(C)C(OC(=O)Nc2cnccn2)C1C)C4=O (stereo not drawn),female CD-1 mouse,oral,10 mg/kg,,55100
Nc1ccn(C[C@@H](CO)OCP(=O)(O)OCCCS(=O)(=O)CCCCCCCCCCC2CCC2)c(=O)n1,mouse,intravenous,3 mg/kg,single dose,333
O=C(c1ccccc1)N1C(c2ccc(OCC3CCN(CCCF)C3)cc2)c2ccc(O)cc2CC12CC2 (stereo not drawn),C57BL/6 mouse,oral,25 mg/kg,,2930
CCc1nc(N)nc(N)c1C#C[C@H](C)c1cc(-c2ccncc2)ccc1OC,mouse,intraperitoneal,16 mg/kg,single dose,4900
CN(C)CCNC(=O)/C=C/C(Cc1ccccc1)Nc1ccnc2cc(Cl)ccc12 (stereo not drawn),CD-1 mouse,oral,5 mg/kg,single dose,148
COC1C=COC2(C)Oc3c(C)c(O)c4c(c3C2=O)C2=NC3(CCN(CC(C)C)CC3)NC2=C(NC(=O)C(C)=CC=CC(C)C(O)C(C)C(O)C(C)C(OC(=O)c2cccnc2)C1C)C4=O (stereo not drawn),female CD-1 mouse,oral,10 mg/kg,,43900
CC(C)CCN(c1nc(C#N)nc(NC2COC2)n1)C(C)c1ccc(F)cc1 (stereo not drawn),mouse,intraperitoneal,10 mg/kg,single dose,1660
CCc1nc(N)nc(N)c1C#C[C@H](C)c1cc(-c2cc(C)nc(C)c2)ccc1Cl,mouse,oral,5 mg/kg,,2600
NC(=O)c1c(F)ccc(OCc2nc3cc(Cl)cnc3s2)c1F,mouse,intravenous,3 mg/kg,,2420
COc1cc(OC)c(F)c(/C=C/c2cnc3ccn(S(=O)(=O)c4cn(CCF)cn4)c3n2)c1F,CD-1 mouse,oral,10 mg/kg,,434
CCS(=O)(=O)c1ccccc1C(=O)N1CCN(c2nc3ccc(F)cc3s2)C[C@@H]1C,mouse,oral,3 mg/kg,,988
Cc1cc(O)cc(O)c1C(=O)c1c2c3c(c(O)cc(C)c3oc1=O)C(=O)c1c(O)cc(O)cc1-2,male Kunming mouse,intraperitoneal,15 mg/kg,,22700
CC(C)(O)c1ccc(N2Cc3c(ccnc3-c3ccc(F)cc3OCC(F)(F)F)C2=O)cc1,male C57BL/6 mouse,oral,10 mg/kg,single dose,38000
CC(C)(C)NCC(SS(=O)(=O)O)c1ccccc1 (stereo not drawn),female Swiss mouse,oral,100 mg/kg,,1430
COC1C=COC2(C)Oc3c(C)c(O)c4c(c3C2=O)C2=NC3(CCN(CC(C)C)CC3)NC2=C(NC(=O)C(C)=CC=CC(C)C(O)C(C)C(O)C(C)C(OC(=O)Nc2cscn2)C1C)C4=O (stereo not drawn),female CD-1 mouse,oral,10 mg/kg,,35700

# Excerpt of the above:
SMILES,species,route,dose,setting,AUC [ng·h/mL]
CCc1nc(N)nc(N)c1C#C[C@H](C)c1cc(-c2cc(C)nc(C)c2)ccc1Cl,mouse,oral,5 mg/kg,,2600
NC(=O)c1c(F)ccc(OCc2nc3cc(Cl)cnc3s2)c1F,mouse,intravenous,3 mg/kg,,2420
